Experimental data of several laboratories.
Numbered parts are unrelated; each lists some results of a single study. Changes are numbered by the printed parent chain.

Set 1 — technique: RNA Bind-n-Seq; form: RNA; medium: in vitro; concentration: 365 nM; reference: no-protein control; reading: higher = stronger binding; measurement: RBNS enrichment (R)
Target: RNA binding protein fox-1 homolog 2, RRM domain, GST-SBP tag (RBFOX2, Homo sapiens, UniProt O43251-10, residues 100-194)
Setting: natural RNA segment, single round, ends assumed
All sequences stand within: GGGAGUUCUACAGUCCGACGAUC … UGGAAUUCUCGGGUGCCAA
Residues (chain): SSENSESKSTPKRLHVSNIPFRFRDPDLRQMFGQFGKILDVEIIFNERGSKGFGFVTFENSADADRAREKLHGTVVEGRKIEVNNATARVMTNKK
CCUAAACUGACUGAAGAGUUUGUCCUGACUUUAUUAAUUGCAGUCUCACAGAAUGCUCAUCAUUCUCCUUCAGCUGUUGCCAUUUUCUUUCAAUCUGAAAAUUAAAGACA: 0.508
UUACUACAUAUGAAUCUGAUAUUCUUAAUAAAGUAUUACUUUAAAUUUUCCAGCAGUAACAUUUAGAGAUUCUUUAUAGAAAUGUCCUCUGCACCAACAGUUUAUGGCUG: 0.571
CAAAUGACUGCACUAUAUGUAUGCAUACGGCCACUUUUGAUUGCUGCGCCCCUUCUGAGUAGUCUUUGACAAUGUGUUGUGUUCCCCGAUGUCGACUUGAUUUCCUUUUA: 0.607
CUACACAUGGUUGCUAUUUAUUUCUACAUGAAGCUUAUUCUCACUUGGAGGUUCUGAAGAUUCUGUUAUAGAGCAAGAAAUGGCUUAAUUUUUUUUUUUAAUUGGAAUUU: 1.26
AACCAGGAGUCACUGAGCCAAUGACUUUACCAGCUGCUGACUAAUCUUCAUCACCACUGUAGAUUUUGCUGCAUGUGCAGGUCCUCUAUUUUUAAUUGCUGUUUUCGUUG: 1.33
AAAGGAAAGCACAGGCUAAGCAGUUGAAGGUUCCCCACCAUUCAGUGAGAGCAGAACCCCCAUUCCCCAGCCUCUGCUGGUAGCAUGUCGCAGUUUCCAUGUGUUUCAGG: 1.63
CAGCCAUUAGGUUGAAAGUAUAUAUUUAUCAUAUAAAACUUGAUGCGUUUUGCACUACUCUUUCCAUUUAUAUGCUGCAAACAACUACAGUCUUUGAAAUAUGGAAAAUC: 0.319
AGAUUUGCUGUGUGAUGAAGUGACAGGGAGGGCCGGAGUCAGCAGGUGCCAGACUUUCUGUUCUGUCUGCCAUGGGUUUGUCCAGCUCAGGUAGCUCUAGGAGCACCAUC: 0.403
CCGCAGCUCAGCUGCACUGCGUUCCGAGGUGAAGUCUUGCCCCUGAAUUUUGCAAAAUGGGAAAGUGGGCGCUUGCCCAAGGGCCAGGCUGCAUGGAUUCUCACAUCAGA: 0.383
ACCUCAGAGAUUUUUCUUCAGGAACUUCCACAAACUUUGAAUCCUUGUAUCUUUAUUUGGUAUUCAUACUACUAGUAGCAAAAUACAGGUUUUUUGUUUUGUUUUGUUUU: 0.545
GAGGCUUUGGGGUUUGUUUUUGUUUUCAUUUUUGUUCCCUCCCAUCCCUAACAUUUUUUUCCCCAAACUUGGGUCUGGAUGUAGAUUCUCACCCUAUGGCCUGAGUCCAA: 1.13
GGGAAAUAUUACUUAUCCAUCAGGUUUCUCUUUGGUUUUUGUAAACGGAGAGGACAGUUCUUAGUCCAGUAAAAAUAUGCAGAUUGUAUGUAAUGAAUUUUUGUAAACAA: 0.939

Set 2 — target: CCNE2, cyclin fold, Cln2 fusion (human); technique: yeast growth competition, sequencing; medium: yeast; setting: weak parent motif; reference: not given; reading: higher = stronger binding; measurement: normalised enrichment score
Starting sequence: PKMYT1 docking peptide (human); SFEPRNLLSLFED; partner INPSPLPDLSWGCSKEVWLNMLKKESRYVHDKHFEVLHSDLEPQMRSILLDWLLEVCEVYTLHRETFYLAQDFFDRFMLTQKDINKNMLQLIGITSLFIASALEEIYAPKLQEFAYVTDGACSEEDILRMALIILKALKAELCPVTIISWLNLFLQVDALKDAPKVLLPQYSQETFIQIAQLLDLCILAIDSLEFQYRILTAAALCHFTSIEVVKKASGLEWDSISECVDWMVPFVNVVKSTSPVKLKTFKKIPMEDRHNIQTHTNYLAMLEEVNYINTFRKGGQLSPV
R5W: 0.0208
L10H: -0.16
F2T: 0.442
S1M: 0.806
E12W: 0.317
P4K: 0.54
F11Y: 0.615
S9V: 0.541
L7H: -0.0114
L8I: -0.0755
S1V: 0.474
S9N: 0.49
D13C: 0.534
N6F: 0.454
S1N: 0.541
N6V: 0.146
S1G: 0.14

Set 3 — technique: RNA Bind-n-Seq; form: RNA; medium: in vitro; concentration: not given; reference: input RNA pool; reading: higher = stronger binding; measurement: bound/input enrichment
Target: RING finger protein unkempt homolog, zinc fingers 1-6, GST-SBP tag (UNK, Homo sapiens, UniProt Q9C0B0, residues 30-357)
Chain of UniProt Q9C0B0 (30-357, looked up): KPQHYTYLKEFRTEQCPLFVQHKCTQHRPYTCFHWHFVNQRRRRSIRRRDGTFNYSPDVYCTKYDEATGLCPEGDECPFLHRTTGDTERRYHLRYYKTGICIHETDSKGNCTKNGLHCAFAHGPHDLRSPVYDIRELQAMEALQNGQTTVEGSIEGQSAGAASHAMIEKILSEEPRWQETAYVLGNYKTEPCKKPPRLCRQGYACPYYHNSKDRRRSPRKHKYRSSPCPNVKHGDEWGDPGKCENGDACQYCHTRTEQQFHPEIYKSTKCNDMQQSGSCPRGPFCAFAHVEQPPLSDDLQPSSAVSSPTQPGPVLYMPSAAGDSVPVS
Setting: RNA with constant flanks, human and mouse sites, ends assumed
All sequences stand within: GGGAGUUCUACAGUCCGACGAUC … CAACAGAGGAUUGAGCAUCA
AUAUAUCUCAAGCAAACCAAAAUAUGAUGCUCUUCUGCUUUGUUUUAUUCUAAAUUGUUGUAUCAUAUCUUUCUGAAACCAUUCUGAAUUUAGUUGAAAUUAUCAAUAUUUAUGCUUUUA: 1.35 ratio
GCAAGAAUGCAGAGAGCUGGAAUUCCUUGUCCAACAGUUGUACUACUGAAGAAACACAUUUUAGUUAUGUCUUUUAUUGGCCAUGAUCAAGUUCCAGCCCCUAAAUUAAAAGAAGUAAAG: 0.449 ratio
CUGAAAGCUGCCAUUGCAGAAUGUGAAGAAGUUAGAAGAAAAAGUGAACUGUUUAACCCUGUUAGUUUAGACUGUAAGCUAAGGCAAAAAGCAAUUGCAGAAGUUGAUGUGGGUACAGAU: 2.25 ratio
ACUUUUCCAUGCAGAGUUGUGCACAUGGGAGAGGGUAUCCGGUUUGUCCAGUGAUUGUUCUUUAGAGAGUUGGACCACUAUAUUGUGUGUUUGCUAAUCAUUGACUGUAGUCCCAAAAAA: 0.194 ratio
AGGCCUUGGUUUACACCCAGAUCCAUUUAUAUGGAAGCAUCUACAGUGGAUUGUAAUGAUUUAGGUCUUUUAACUUUCCCAGCCAGAUUGCCAGCUAACACACAGAUUCUUCUCCUACAG: 0.172 ratio
UUUAGCUUCCUGGAGAGCCACAACAAGCUGGACAAAGACAACCUCUCCUACAUUGAGCACAUCUUUGAGAUCUCCCGCCGUCCUGACCUACUCACUAUGGUGGUUGACUACAGAACCCGU: 0.143 ratio
GCGGCUUUUUACCUUCUCUCUACGCUAGGAGGAUACUUGGUGACCUCAUUCUUGUUGCUUAAAUACCCGACCUUGCUGCACCAGAGAAAGAAGCAGCGAUUCCUCAGUAAACACAUCUCU: 0.111 ratio
CCCAAGGACAGGUGGAAUAAUACCCCCAUGGAUGAAGCACUACACUUUGGACACCAUGAUGUUUUUAAAAUCCUUCAGGAAUACCAAGUUCAGUACACACCUCAAGGGGAUUCUGAUGAU: 0.143 ratio
AACAGUGCAGAAGAGUUAGAAGGUCUUAUUGCUGAUCCUGAUGAGAUGAGAAUGCAAGCGCUGUUAAUUAGAGAACGGAUUCUUGGUCCUUCUCAUCCCGAUACCUCUUACUACAUUAGA: 0.326 ratio
GGAACUGUGGUCCAUGGGAAAGUCUUACAGUAUUACCAGGAGUCUGAGAAACCUGAGGAGUUAGGAUCUGUAACUGUACAAAAAGAAUAUUCAUCCUCCUUUGACCGAGUUAUCAAAGAG: 0.245 ratio
CGCUGGCCCAAGCUGAUGGACUCUGAUGGCCUCCAUCUCUCAGGCACGUGUGCCUUCUCUUAGUCCCUGUUUUCGGGAUGUUAUGAAUCUCAGUACUGUGGUUUGAAAGCACCAGCUUUG: 0.1 ratio

Set 4 — technique: protein binding microarray; form: double-stranded DNA, one strand shown; medium: in vitro; concentration: not given; reference: not given; reading: higher = stronger binding; measurement: E-score
Target: Histone acetyltransferase KAT6A, winged helix 1, GST fusion (KAT6A, Homo sapiens, UniProt Q92794, residues 1-85)
Setting: 8-mer, flanks averaged, mean of 2 arrays, mostly near background
Residues (chain): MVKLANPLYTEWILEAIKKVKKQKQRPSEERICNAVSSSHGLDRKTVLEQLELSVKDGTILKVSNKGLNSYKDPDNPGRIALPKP
AAATCCAC: -0.287
GACCGCGA: 0.332
CACGGATC: 0.269
GAGCCAGA: -0.288
GAAACACA: -0.0356
GCACGTTA: -0.0821
CGTAGACG: 0.175
GCCGTGTA: 0.343
GGAATTGA: -0.0477
CCCGGCGC: 0.463
ATGCTAGA: -0.191
CGCCTCGA: 0.147
AAACAACG: 0.0447
ACGATTCG: 0.0973
ATTATCAA: -0.202
ATTGAAAC: -0.185
AGTTAATA: -0.0606
AACTTTCA: -0.154

For quick reference, copied from above (set 4):
GAGCCAGA: -0.288
GAAACACA: -0.0356
GCACGTTA: -0.0821
CGTAGACG: 0.175
